Assay results of several laboratories.
Compare with care: the assays were run in different laboratories. “And” joins repeats or separate records; there may be more than shown. ± marks the error that the study gave.
TDP1: Tyrosyl-DNA phosphodiesterase 1 (TDP1, Homo sapiens, UniProt Q9NUW8)
BRD4 BD1: Bromodomain-containing protein 4, BD1 (BRD4, Homo sapiens, UniProt O60885)
CASP6: Caspase-6 (CASP6, Homo sapiens, UniProt P55212)
T1: RNase P RNA (Methanobrevibacter smithii); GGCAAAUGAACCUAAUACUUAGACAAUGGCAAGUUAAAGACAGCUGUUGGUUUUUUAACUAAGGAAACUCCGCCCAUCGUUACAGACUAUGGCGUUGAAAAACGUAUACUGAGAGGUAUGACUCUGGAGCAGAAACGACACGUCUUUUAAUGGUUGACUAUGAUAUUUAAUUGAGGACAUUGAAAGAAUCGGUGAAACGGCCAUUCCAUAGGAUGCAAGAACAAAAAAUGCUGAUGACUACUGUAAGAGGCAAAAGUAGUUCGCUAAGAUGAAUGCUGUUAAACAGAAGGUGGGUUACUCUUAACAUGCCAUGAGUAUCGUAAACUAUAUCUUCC

SMILES | target | test | test system | conditions | scale | measurement | value
N=C(N)NCCS(=O)(=O)O | Sodium- and chloride-dependent taurine transporter (SLC6A6, Homo sapiens, UniProt P31641, Y138A) | binding, microscale thermophoresis |  | 30.5 nM, room temperature, added: 50 nM labelled protein | higher = more binding | normalised MST signal | 0.0191
O=C1CC(c2ccccc2)N1S(=O)(=O)c1cccc(Cl)c1 (centres unmarked) | Rhomboid protease GlpG (glpG, Escherichia coli, UniProt P09391) | substrate cleavage, inhibitor | NR698 |  |  | IC50 | inactive
CCCCO | Lysozyme C (LYZ, Gallus gallus, UniProt P00698) | binding, static light scattering |  | pH 7, 25 °C, added: NaCl 50 mM |  | association constant | 3.7 M⁻¹
C#CCOC(=O)[C@]1(C)C=C(C(=O)OC(C)(C)C)C(=O)CC1 | Mitogen-activated protein kinase 8 (MAPK8, Homo sapiens, UniProt P45983) | enzyme activity, D-SENSOR |  | 0.5487 µM, single replicate |  | normalized kinase activity | 1.05 and 0.967 and 1.06
N#Cc1c(O)ncc(C=NOCc2ccc3nc(-c4ccccc4)c(Nc4ccc(C(=O)O)cc4)n3c2)c1Nc1ccccc1 | TDP1 | enzyme activity, inhibitor |  | 100 µM, unpurified compound |  | inhibition | -3.6%
CC[C@H](C)[C@@H]1NC(=O)[C@H](Cc2c[nH]c3ccccc23)NC(=O)[C@H](C)NC(=O)[C@H](Cc2ccc(O)cc2)NC(=O)CNC(=O)[C@H](Cc2ccccc2)N(C)C(=O)[C@H](C)N(C)C(=O)[C@H](Cc2ccc(O)cc2)NC(=O)[C@H](C(C)C)NC(=O)[C@H](CC(C)C)NC(=O)[C@H](Cc2ccccc2)NC(=O)CSC[C@@H](C(=O)NCC(N)=O)NC1=O | BRD4 BD1 | thermal stability, DSF |  | 100 µM |  | ΔTm | 1.01 °C
Fc1ccc(Nc2nc(NC3CCCCC3)c3cc(C(F)(F)F)ccc3n2)cc1F | Beta-2 adrenergic receptor (ADRB2, Homo sapiens, UniProt P07550, Q170L) | β-arrestin2 recruitment, antagonist, BRET |  | mutant Q170L | relative to: isoprenaline maximal response | maximal inhibition | -2%
CC(=O)N[C@@H](Cc1c[nH]c2ccccc12)C(=O)N[C@@H](CCCCN)C(=O)N[C@@H](CCC(=O)O)C(=O)N[C@@H](CC(=O)O)C(=O)COC(=O)c1c(C)cccc1C | CASP6 | enzyme activity, inhibitor |  |  |  | kinact/KI | 1900 M⁻¹ s⁻¹
c1ccc(Nc2nc(NC3CCCCC3)c3ccccc3n2)cc1 | Beta-2 adrenergic receptor (ADRB2, Homo sapiens, UniProt P07550) | β-arrestin2 recruitment, PathHunter and GloSensor |  |  | relative to: GloSensor IC50 over PathHunter IC50 | bias factor | > 16 fold
CCCCCC=CC=C1C(=O)C=CC1CC=CCCCC(=O)O (centres unmarked) | NIT1 (Homo sapiens, UniProt Q86X76) | competitive isoTOP-ABPP | Ramos soluble proteome | 100 µM, 60 min, added: iodoacetamide probe | relative to: DMSO over compound-treated, higher = stronger cysteine blockade | isoTOP-ABPP competition ratio | 12
COc1ccc2[nH]c(-c3ccccc3)nc2c1 | Core-binding factor subunit beta, with RUNX1 Runt domain (Homo sapiens, UniProt Q13951) | Runt domain binding, inhibitor, FRET |  |  |  | IC50 | inactive
CC(C)[C@@H]1NC(=O)[C@H](Cc2ccccc2)NC(=O)CSC[C@@H](C(N)=O)NC(=O)[C@H](CCC(=O)O)NC(=O)[C@H](CO)NC(=O)[C@H](Cc2c[nH]c3cccc(Cl)c23)NC(=O)[C@H](C2CCCCC2)NC(=O)[C@H](C(C)C)NC(=O)[C@H](Cc2ccc(O)cc2)NC(=O)[C@H](CC(=O)O)NC(=O)[C@H](Cc2c[nH]c3ccccc23)NC(=O)[C@H](Cc2ccc(N)nc2)NC(=O)[C@H](Cc2c[nH]c3ccc(Cl)cc23)NC(=O)[C@H](CCC(=O)O)NC1=O | Interleukin-1 receptor-like 2 (IL1RL2, Homo sapiens, UniProt Q9HB29) | IL-8 release, antagonist | A-431 | 0.6 µM, 18 h, added: IL-36γ | relative to: untreated | remaining activity | 95.9%
COc1ccc2c(c1OC)C(=O)N(c1ccc(Cl)c(Cl)c1)C2 | Uncharacterized protein (Trypanosoma brucei brucei, UniProt Q386Q8) | inhibitor, coupled colorimetric | Trypanosoma brucei |  |  | Hill slope | -1.1
O=C1c2sc(-c3ccc(N4CCC(F)C4)nc3F)nc2CCN1c1cccnc1 (centres unmarked) | central benzodiazepine receptor | radioligand binding |  | 1 µM, added: agonist radioligand |  | inhibition | 7%
Cc1nc2sccn2c1C=NOCc1ccc2nc(-c3ccccc3)c(Nc3ccc(C(=O)O)cc3)n2c1 | TDP1 | enzyme activity, inhibitor |  | 100 µM, unpurified compound |  | inhibition | 15.2%
CCCCOc1ccc(C(=O)OCCN2CC=CCC2)cc1 | Muscarinic acetylcholine receptor M3 (CHRM3, Homo sapiens, UniProt P20309) |  | membranes | 100 µM, 15 h, no carbachol | relative to: control | basal binding | 0.93 ± 0.03 fold
O=C1c2sc(-c3ccc(N4CCC(CO)CC4)nc3F)nc2CCN1c1cccnc1 | TAR DNA-binding protein 43, aggregated (TARDBP, Homo sapiens, UniProt Q13148) | binding, surface plasmon resonance | brain-derived TDP-43 aggregates | 150 nM |  | SPR response | 3.74 RU
O=C(O)c1ccc(Nc2c(-c3ccccc3)nc3ccc(CON=Cc4cccc5[nH]ccc45)cn23)cc1 (mixture of isomers) | TDP1 | enzyme activity, inhibitor |  | 100 µM, unpurified compound |  | inhibition | 39.7%

SMILES | target | test | test system | conditions | scale | measurement | value
CCCC[C@H](NC(=O)[C@H](CC(C)C)NC(=O)[C@H](CO)NC(=O)[C@H](CO)NC(=O)[C@H](C)NC(=O)[C@H](CO)NC(=O)[C@H](C)N)C(=O)N[C@@H](CC(=O)O)C(=O)N[C@@H](CCCCN)C(=O)N[C@@H](CCC(=O)O)C(=O)N[C@@H](C)C(=O)N[C@H](C(=O)N[C@@H](Cc1ccc(O)cc1)C(=O)N[C@@H](Cc1ccccc1)C(=O)N[C@@H](C)C(=O)N[C@@H](Cc1c[nH]cn1)C(=O)N[C@@H](CC(C)C)C(=O)N[C@@H](CC(=O)O)C(=O)N[C@H](C(=O)N[C@H](C(=O)N[C@@H](Cc1c[nH]c2ccccc12)C(=O)O)[C@@H](C)CC)[C@@H](C)CC)C(C)C | Endothelin receptor type B (EDNRB, Homo sapiens, UniProt P24530) | agonist | HEK293 | ETBR/ETAR ratio 1:0 |  | Emax | 98 ± 5%
O=C(O)c1ccc(Nc2c(-c3ccc(CON=Cc4ccccc4OCc4nnsc4Cl)cc3)nc3cc(-c4ccccc4)ccn23)cc1 | TDP1 | enzyme activity, inhibitor |  | 100 µM, unpurified compound |  | inhibition | 58.4%
CC(C)C[C@@H]1NC(=O)[C@H](Cc2ccccc2)NC(=O)CSC[C@@H](C(=O)NCC(N)=O)NC(=O)[C@H](Cc2ccc(O)cc2)NC(=O)[C@H](C(C)C)NC(=O)[C@H](Cc2ccccc2)NC(=O)[C@H](Cc2ccc(O)cc2)NC(=O)[C@H](Cc2ccccc2)NC(=O)[C@H](CC(=O)O)NC(=O)[C@H](CC(N)=O)NC(=O)[C@H](CC(N)=O)NC(=O)[C@H](Cc2ccc(O)cc2)NC(=O)[C@H](C(C)C)NC(=O)[C@H](Cc2ccccc2)NC1=O | BRD4 BD1 | thermal stability, DSF |  | 100 µM |  | ΔTm | 0.73 °C
O=C(O)c1ccc(Nc2c(-c3ccccc3)nc3ccc(CON=Cc4cccc(Oc5ncccn5)c4)cn23)cc1 | TDP1 | enzyme activity, inhibitor |  | 100 µM, unpurified compound |  | inhibition | 12.9%
CC(=O)N[C@@H](CC(=O)O)C(=O)N[C@@H](CCC(=O)O)C(=O)N[C@@H](CC(C)C)C(=O)N[C@@H](CC(=O)O)C(=O)COC(=O)c1c(C)cccc1C | CASP6 | enzyme activity, inhibitor |  |  |  | kinact/KI | 327000 M⁻¹ s⁻¹
O=C(O)c1ccc(Nc2c(-c3ccccc3)nc3ccc(CON=Cc4ccc(COc5c(F)c(F)cc(F)c5F)o4)cn23)cc1 (mixture of isomers) | TDP1 | enzyme activity, inhibitor |  | 100 µM, unpurified compound |  | inhibition | 20.7%
COC(=O)Cc1cc2c(cc1C(=O)c1cccc(I)c1)OCO2 | Glutamate receptor 1 (Gria1, Rattus norvegicus, UniProt P19490) | glutamate-evoked current, whole-cell patch clamp | HEK-293T | concentration not given, weighted tau, 500 ms pulse, added: glutamate |  | desensitization time constant | 2.6 ± 0.1 ms
CC(C=CC=C(C)C=CC1=C(C)CCCC1(C)C)=CC=O | Rhodopsin (RHO, Homo sapiens, UniProt P08100, E181K) | immunostaining, measured: opsin | COS-7 transfected | 50.00 µM, unit not given | relative to: surface over total stained cells | plasma membrane localization | 0.98
N=C(N)NCCC[C@H](NC(=O)[C@@H]1CCCN1C(=O)[C@H](CCCNC(=N)N)NC(=O)[C@@H]1CCCN1C(=O)[C@H](CCCNC(=N)N)NC(=O)[C@@H]1CCCN1C(=O)[C@H](CCCNC(=N)N)NC(=O)[C@@H]1CCCN1C(=O)[C@H](CCCNC(=N)N)NC(=O)[C@@H]1CCCN1C(=O)[C@H](CCCNC(=N)N)NC(=O)[C@@H]1CCCN1C(=O)[C@H](CCCNC(=N)N)NC(=O)[C@@H]1CCCN1C(=O)[C@H](CCCNC(=N)N)NC(=O)[C@@H]1CCCN1C(=O)[C@H](CCCNC(=N)N)NC(=O)[C@@H]1CCCN1C(=O)[C@H](CCCNC(=N)N)NC(=O)[C@@H]1CCCN1C(=O)[C@H](CCCNC(=N)N)NC(=O)[C@@H]1CCCN1C(=O)[C@H](CCCNC(=N)N)NC(=O)[C@@H]1CCCN1C(=O)[C@H](CCCNC(=N)N)NC(=O)[C@@H]1CCCN1C(=O)[C@H](CCCNC(=N)N)NC(=O)[C@@H]1CCCN1C(=O)[C@H](CCCNC(=N)N)NC(=O)[C@@H]1CCCN1C(=O)[C@H](CCCNC(=N)N)NC(=O)[C@@H]1CCCN1C(=O)[C@H](CCCNC(=N)N)NC(=O)[C@@H]1CCCN1C(=O)[C@H](CCCNC(=N)N)NC(=O)[C@@H]1CCCN1C(=O)[C@H](CCCNC(=N)N)NC(=O)[C@@H]1CCCN1C(=O)[C@H](CCCNC(=N)N)NC(=O)[C@@H]1CCCN1C(=O)[C@H](CCCNC(=N)N)NC(=O)[C@@H]1CCCN1C(=O)[C@H](CCCNC(=N)N)NC(=O)[C@@H]1CCCN1C(=O)[C@H](CCCNC(=N)N)NC(=O)[C@@H]1CCCN1C(=O)[C@H](Cc1ccc(O)cc1)NC(=O)[C@H](CO)NC(=O)CN)C(=O)O | Nucleophosmin (NPM1, Homo sapiens, UniProt P06748) | SANS P(r) analysis |  | 2 molar excess over NPM1, 25 °C |  | radius of gyration | 104.5 ± 0.86 Å
O=C(O)c1ccc(Nc2c(-c3ccc(CON=Cc4ccc5c(c4)Cc4ccccc4-5)cc3)nc3cc(-c4ccccc4)ccn23)cc1 | TDP1 | enzyme activity, inhibitor |  | 100 µM |  | inhibition | 53%
CC(C)Oc1cc(Cl)ccc1CNc1cc(-c2ccccc2)nc2ncnn12 | G-protein coupled receptor 3 (GPR3, Homo sapiens, UniProt P46089, Q211A) | cAMP level, cAMP GloSensor |  | 100 pM | higher = more cAMP | cAMP luminescence | 45300 a.u. and 41400 a.u. and 32800 a.u. and 33200 a.u.
NC(=O)c1cccc(CN(C(=O)NC(CN2CCCCC2)c2ccccc2)C(CN2CCCCC2)c2ccccc2)c1 (centres unmarked) | Kappa-type opioid receptor (OPRK1, Homo sapiens, UniProt P41145) | Gi signalling |  |  | relative to: reference agonist | delta log(tau/KA) | -0.84
O=C1C[C@H](c2nc(-c3ccc(F)c4cn[nH]c34)no2)CCCN1c1ccc(F)cc1 (racemic) | Cannabinoid receptor 2 (CNR2, Homo sapiens, UniProt P34972) | agonist, GloSensor cAMP | CHO expressing CB2 | 1 nM |  | cAMP inhibition | -0.571% and 9.71% and 4%
O=C(O)c1ccc(Nc2c(-c3ccccc3)nc3ccc(CON=Cc4cncn4Cc4ccccc4)cn23)cc1 | TDP1 | enzyme activity, inhibitor |  | 100 µM, unpurified compound |  | inhibition | 3.1%
COc1ccccc1C1(O)CC(c2ccc(C)cc2)NC(c2ccc(C)cc2)C1C (centres unmarked) | T1, RNase P RNA (Methanobrevibacter smithii) | progress curve cleavage assay |  | added: pre-tRNA |  | Ki | 49 µM
CCCCCC(O)/C=C/C=O (centres unmarked) | Chromatin accessibility complex protein 1, Cys55 (CHRAC1, Homo sapiens, UniProt Q9NRG0) | competitive isoTOP-ABPP | Ramos soluble proteome | 100 µM, 60 min, added: iodoacetamide probe | relative to: DMSO over compound-treated, higher = stronger cysteine blockade | isoTOP-ABPP competition ratio | 1.8
N[C@H]1CC[C@H](Nc2nccc(-c3cccnc3Oc3ccc(NC(=O)NC4CC4)c4ccccc34)n2)CC1 | A-kinase anchor protein 12 (AKAP12, Homo sapiens, UniProt Q02952) | kinobead competition pulldown, measured: AKAP12 | HEK293/HCT116 lysate mixture | 10 µM, 1 h, 4 °C | lower = stronger competition | log2 LFQ intensity | 20 and 19.2 and 19 and 19.6
